{"data": "Assay results collected from several papers", "note": "Parts stem from different laboratories: compare values within a part only. Values joined by “and” are separate records of one study, mostly repeats; a detail may differ.", "sequence of UniProt P54760 (whole entry, looked up)": "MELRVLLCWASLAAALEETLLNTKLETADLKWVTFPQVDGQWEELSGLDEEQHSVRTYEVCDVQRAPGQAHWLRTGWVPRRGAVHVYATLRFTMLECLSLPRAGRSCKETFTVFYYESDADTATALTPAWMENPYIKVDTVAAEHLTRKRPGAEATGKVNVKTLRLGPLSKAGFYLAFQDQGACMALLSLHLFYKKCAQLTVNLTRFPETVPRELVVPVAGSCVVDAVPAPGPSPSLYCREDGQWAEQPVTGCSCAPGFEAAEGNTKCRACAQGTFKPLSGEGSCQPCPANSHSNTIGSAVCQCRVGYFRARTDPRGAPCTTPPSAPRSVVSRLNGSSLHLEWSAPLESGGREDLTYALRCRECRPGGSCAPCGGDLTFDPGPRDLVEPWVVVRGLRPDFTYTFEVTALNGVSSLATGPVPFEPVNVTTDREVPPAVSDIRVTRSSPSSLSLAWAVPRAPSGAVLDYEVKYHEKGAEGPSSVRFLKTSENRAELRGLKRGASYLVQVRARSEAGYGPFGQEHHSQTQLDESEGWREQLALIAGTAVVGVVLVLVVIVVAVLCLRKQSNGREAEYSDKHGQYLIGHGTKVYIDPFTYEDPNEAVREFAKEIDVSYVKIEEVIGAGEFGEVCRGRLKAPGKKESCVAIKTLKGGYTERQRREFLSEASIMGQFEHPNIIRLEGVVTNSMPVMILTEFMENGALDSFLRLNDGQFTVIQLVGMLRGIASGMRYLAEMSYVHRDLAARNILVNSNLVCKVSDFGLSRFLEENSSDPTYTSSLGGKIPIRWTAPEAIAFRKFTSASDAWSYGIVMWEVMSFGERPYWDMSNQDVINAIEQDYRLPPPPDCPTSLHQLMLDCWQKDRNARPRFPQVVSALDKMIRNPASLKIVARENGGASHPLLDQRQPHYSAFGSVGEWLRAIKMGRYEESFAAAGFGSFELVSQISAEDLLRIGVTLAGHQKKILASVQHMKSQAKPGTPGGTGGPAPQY", "sequence of UniProt P04049 (whole entry, looked up)": "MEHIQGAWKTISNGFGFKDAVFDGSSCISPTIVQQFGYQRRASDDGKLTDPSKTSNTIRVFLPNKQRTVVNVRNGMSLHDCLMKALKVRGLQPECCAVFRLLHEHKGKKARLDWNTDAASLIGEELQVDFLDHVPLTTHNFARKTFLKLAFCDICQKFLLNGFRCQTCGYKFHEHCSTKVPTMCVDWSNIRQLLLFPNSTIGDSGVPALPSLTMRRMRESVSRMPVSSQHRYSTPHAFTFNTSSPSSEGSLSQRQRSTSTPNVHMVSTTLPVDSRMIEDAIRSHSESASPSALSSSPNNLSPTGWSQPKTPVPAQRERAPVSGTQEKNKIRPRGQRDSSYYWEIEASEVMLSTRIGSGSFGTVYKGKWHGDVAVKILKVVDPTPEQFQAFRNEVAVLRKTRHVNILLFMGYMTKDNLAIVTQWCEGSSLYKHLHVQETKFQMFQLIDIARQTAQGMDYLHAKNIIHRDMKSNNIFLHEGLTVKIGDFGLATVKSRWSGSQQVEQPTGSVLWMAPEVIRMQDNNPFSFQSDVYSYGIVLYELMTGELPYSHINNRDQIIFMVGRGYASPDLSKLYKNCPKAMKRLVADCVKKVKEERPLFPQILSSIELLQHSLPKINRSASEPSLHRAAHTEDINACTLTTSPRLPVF", "sequence of UniProt O15075 (whole entry, looked up)": "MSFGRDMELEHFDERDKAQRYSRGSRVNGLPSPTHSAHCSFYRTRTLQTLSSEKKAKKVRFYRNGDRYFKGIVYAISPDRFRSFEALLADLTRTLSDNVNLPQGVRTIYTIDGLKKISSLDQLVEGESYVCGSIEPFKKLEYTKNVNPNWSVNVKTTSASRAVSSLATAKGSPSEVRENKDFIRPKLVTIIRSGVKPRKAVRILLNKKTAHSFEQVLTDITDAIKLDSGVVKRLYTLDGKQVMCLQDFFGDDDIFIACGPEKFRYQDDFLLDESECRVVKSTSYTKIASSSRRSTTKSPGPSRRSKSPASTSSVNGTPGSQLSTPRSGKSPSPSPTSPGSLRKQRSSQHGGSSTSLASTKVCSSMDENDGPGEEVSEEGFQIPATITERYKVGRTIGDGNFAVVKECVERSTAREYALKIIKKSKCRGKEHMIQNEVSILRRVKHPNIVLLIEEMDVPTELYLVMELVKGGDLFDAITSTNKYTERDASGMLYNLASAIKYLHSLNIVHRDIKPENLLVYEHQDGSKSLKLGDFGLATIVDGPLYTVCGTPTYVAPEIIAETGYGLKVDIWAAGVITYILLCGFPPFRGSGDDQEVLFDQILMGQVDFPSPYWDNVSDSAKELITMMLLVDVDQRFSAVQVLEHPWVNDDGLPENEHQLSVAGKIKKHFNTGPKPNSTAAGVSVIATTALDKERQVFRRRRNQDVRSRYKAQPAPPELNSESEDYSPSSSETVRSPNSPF", "sequence of UniProt Q2M2I8 (whole entry, looked up)": "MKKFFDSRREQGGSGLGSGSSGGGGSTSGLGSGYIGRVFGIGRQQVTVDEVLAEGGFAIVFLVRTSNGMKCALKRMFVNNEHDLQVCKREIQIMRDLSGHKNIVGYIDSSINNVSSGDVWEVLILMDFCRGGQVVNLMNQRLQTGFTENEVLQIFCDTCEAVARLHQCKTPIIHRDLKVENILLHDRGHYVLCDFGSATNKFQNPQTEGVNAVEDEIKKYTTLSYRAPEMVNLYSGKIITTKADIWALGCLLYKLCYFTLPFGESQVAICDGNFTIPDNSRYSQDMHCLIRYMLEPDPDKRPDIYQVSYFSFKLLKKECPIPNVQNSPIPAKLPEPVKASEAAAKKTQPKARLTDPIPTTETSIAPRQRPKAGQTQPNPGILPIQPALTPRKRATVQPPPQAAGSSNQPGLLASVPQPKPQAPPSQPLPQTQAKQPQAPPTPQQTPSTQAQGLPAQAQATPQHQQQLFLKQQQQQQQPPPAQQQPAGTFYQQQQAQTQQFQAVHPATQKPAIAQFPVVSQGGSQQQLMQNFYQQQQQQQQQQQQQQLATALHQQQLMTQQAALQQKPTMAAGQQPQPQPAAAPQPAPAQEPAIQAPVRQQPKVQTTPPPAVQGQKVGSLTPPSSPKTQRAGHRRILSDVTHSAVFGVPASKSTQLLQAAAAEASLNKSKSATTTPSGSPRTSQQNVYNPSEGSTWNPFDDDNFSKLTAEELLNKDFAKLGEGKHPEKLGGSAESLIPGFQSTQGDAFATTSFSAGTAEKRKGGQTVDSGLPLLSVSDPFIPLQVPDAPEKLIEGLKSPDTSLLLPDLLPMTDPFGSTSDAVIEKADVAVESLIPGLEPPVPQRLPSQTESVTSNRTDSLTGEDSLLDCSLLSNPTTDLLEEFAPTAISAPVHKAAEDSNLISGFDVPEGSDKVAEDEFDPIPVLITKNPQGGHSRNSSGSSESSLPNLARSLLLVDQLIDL", "sequence of UniProt P00519 (whole entry, looked up)": "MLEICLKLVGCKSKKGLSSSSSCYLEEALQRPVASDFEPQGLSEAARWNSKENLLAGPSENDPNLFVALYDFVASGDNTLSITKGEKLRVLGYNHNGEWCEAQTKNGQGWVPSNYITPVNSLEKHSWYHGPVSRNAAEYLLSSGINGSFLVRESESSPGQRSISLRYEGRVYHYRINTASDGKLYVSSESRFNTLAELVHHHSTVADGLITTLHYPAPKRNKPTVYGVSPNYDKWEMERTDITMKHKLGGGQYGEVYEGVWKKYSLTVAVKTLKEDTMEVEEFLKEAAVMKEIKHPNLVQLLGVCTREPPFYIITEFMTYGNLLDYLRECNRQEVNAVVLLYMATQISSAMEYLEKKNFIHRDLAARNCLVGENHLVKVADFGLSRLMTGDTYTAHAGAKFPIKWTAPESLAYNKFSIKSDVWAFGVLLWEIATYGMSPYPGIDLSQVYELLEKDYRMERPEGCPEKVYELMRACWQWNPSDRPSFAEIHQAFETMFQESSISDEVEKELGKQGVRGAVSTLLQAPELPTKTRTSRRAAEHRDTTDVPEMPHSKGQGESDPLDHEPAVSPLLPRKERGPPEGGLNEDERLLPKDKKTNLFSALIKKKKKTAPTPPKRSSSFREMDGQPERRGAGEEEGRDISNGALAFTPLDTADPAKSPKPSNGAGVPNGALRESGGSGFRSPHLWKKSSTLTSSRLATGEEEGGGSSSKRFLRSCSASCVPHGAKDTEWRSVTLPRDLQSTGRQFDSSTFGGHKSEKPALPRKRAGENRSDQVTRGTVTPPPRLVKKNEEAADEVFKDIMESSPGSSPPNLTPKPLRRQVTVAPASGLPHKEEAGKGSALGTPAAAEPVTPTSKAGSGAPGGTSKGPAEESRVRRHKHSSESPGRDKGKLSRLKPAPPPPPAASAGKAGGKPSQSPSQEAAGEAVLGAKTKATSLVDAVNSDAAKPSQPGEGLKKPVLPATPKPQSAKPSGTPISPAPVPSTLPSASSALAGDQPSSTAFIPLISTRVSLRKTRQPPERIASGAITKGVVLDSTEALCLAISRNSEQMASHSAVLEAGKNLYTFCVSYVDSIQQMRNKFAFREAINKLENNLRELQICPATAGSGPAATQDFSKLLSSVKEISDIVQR"}
{"data": "Series 1", "cell line": "HaCaT", "concentration": "100 µM", "time": "18 h"}
{"SMILES": "CC(C)(C)c1cc(C(C)(C)C)c(NC(=O)c2c[nH]c3ccccc3c2=O)cc1O", "viability [%]": 17}
{"SMILES": "COc1cc(N)c(Cl)cc1C(=O)N[C@@H]1CCN(CCCOc2ccc(F)cc2)C[C@@H]1OC (racemic)", "viability [%]": 43.6}
{"SMILES": "CCn1cc(C(=O)O)c(=O)c2cc(F)c(N3CCNCC3)cc21", "viability [%]": 114}
{"SMILES": "C[C@]12CC[C@@H]3c4ccc(O)cc4C[C@@H](CCCCCCCCC[S+]([O-])CCCC(F)(F)C(F)(F)F)[C@H]3[C@@H]1CC[C@@H]2O (some centres unmarked)", "viability [%]": 98.6}
{"SMILES": "COc1c2occc2cc2ccc(=O)oc12", "viability [%]": 82.8}
{"SMILES": "Nc1nc(=O)[nH]cc1F", "viability [%]": 117}
{"SMILES": "CN1C[C@@H]2c3ccccc3Oc3ccc(Cl)cc3[C@H]2C1 (racemic)", "viability [%]": 26.4}
{"data": "Series 2", "cell line": "mouse MPNST tumor cells", "technique": "high-content nuclear imaging", "measured": "cell number", "concentration": "10 µM", "time": "12 h", "setting": "mean of 2 replicates", "baseline": "plate mean", "reading": "higher = more cells"}
{"Compound": "c1ccc2c(CC3=NCCN3)cccc2c1", "nuclei count": "0.918 z-score"}
{"Compound": "CCCCC#Cc1nc(NC)c2ncn(C3OC(CO)C(O)C3O)c2n1 (centres unmarked)", "nuclei count": "-1.4 z-score"}
{"Compound": "Nc1c2c(nc3ccccc13)CCCC2", "nuclei count": "-0.349 z-score and -0.805 z-score"}
{"Compound": "CN1CCN(C(=O)c2nc3ccc(Cl)cc3[nH]2)CC1", "nuclei count": "0.669 z-score"}
{"Compound": "COc1cc(-c2ccc(N=Nc3ccc4c(S(=O)(=O)O)cc(S(=O)(=O)O)c(N)c4c3O)c(OC)c2)ccc1N=Nc1ccc2c(S(=O)(=O)O)cc(S(=O)(=O)O)c(N)c2c1O", "nuclei count": "0.597 z-score"}
{"Compound": "CCC(=O)NC[C@H](Cc1ccc(OCCc2nc(-c3ccccc3)oc2C)cc1)N/C(C)=C\\C(=O)c1ccc(C(F)(F)F)cc1", "nuclei count": "-0.588 z-score"}
{"Compound": "c1ccc(Oc2nc(NC3CCCCC3)c3[nH]cnc3n2)cc1", "nuclei count": "-1.3 z-score"}
{"Compound": "CNNCc1ccc(C(=O)NC(C)C)cc1", "nuclei count": "1.39 z-score and 1.29 z-score"}
{"data": "Series 3", "SMILES": "CCCOc1ccc([C@H]2[C@H](C(=O)O)[C@@H](c3ccc4c(c3)OCO4)CN2CC(=O)Nc2c(CC)cccc2CC)cc1", "concentration": "1 µM"}
{"target": "LRRK2 (Homo sapiens, UniProt Q5S007)", "test": "cell-free assay, competition with immobilised ligand", "remaining binding [%]": 79}
{"target": "PIK3CA (Homo sapiens, UniProt P42336, C420R)", "test": "cell-free assay, competition with immobilised ligand", "remaining binding [%]": 95}
{"target": "Tyrosine-protein kinase ABL1, phosphorylated (ABL1, Homo sapiens, UniProt P00519)", "test": "cell-free assay, competition with immobilised ligand", "remaining binding [%]": 73}
{"target": "EPHA2 (Homo sapiens, UniProt P29317)", "test": "cell-free assay, competition with immobilised ligand", "remaining binding [%]": 100}
{"target": "RAF1 (Homo sapiens, UniProt P04049)", "test": "cell-free assay, competition with immobilised ligand", "remaining binding [%]": 98}
{"target": "Receptor-type tyrosine-protein kinase FLT3, autoinhibited (FLT3, Homo sapiens, UniProt P36888)", "test": "cell-free assay, competition with immobilised ligand", "remaining binding [%]": 80}
{"target": "GAK (Homo sapiens, UniProt O14976)", "test": "cell-free assay, competition with immobilised ligand", "remaining binding [%]": 93}
{"target": "EPHB4 (Homo sapiens, UniProt P54760)", "test": "cell-free assay, competition with immobilised ligand", "remaining binding [%]": 100}
{"target": "DCLK1 (Homo sapiens, UniProt O15075)", "test": "cell-free assay, competition with immobilised ligand", "remaining binding [%]": 75}
{"target": "TNK1 (Homo sapiens, UniProt Q13470)", "test": "cell-free assay, competition with immobilised ligand", "remaining binding [%]": 100}
{"target": "Tyrosine-protein kinase JAK2, JH1 (JAK2, Homo sapiens, UniProt O60674)", "test": "cell-free assay, competition with immobilised ligand", "remaining binding [%]": 53}
{"target": "LTK (Homo sapiens, UniProt P29376)", "test": "cell-free assay, competition with immobilised ligand", "remaining binding [%]": 100}
{"target": "AAK1 (Homo sapiens, UniProt Q2M2I8)", "test": "binding", "remaining binding [%]": 95}
{"target": "STK4 (Homo sapiens, UniProt Q13043)", "test": "cell-free assay, competition with immobilised ligand", "remaining binding [%]": 99}
{"target": "NEK7 (Homo sapiens, UniProt Q8TDX7)", "test": "cell-free assay, competition with immobilised ligand", "remaining binding [%]": 96}
{"data": "Series 4", "target": "Serine/threonine-protein kinase 24 (STK24, Homo sapiens, UniProt Q9Y6E0)", "effect on": "enzyme activity", "action": "inhibitor", "concentration": "0.5 µM", "baseline": "control", "sequence of UniProt Q9Y6E0 (whole entry, looked up)": "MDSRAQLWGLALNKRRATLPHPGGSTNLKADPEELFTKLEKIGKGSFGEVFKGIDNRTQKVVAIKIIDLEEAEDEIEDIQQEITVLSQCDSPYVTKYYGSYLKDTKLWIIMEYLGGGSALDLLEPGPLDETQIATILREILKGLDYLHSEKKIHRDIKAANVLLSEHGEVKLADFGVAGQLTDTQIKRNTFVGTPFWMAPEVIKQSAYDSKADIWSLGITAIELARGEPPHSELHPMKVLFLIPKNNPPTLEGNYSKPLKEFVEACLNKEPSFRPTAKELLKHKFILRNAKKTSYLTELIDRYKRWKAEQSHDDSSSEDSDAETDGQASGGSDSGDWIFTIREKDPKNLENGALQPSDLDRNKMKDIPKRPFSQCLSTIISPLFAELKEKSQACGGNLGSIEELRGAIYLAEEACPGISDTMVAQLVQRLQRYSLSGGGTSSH"}
{"SMILES": "NC(=O)c1ccc(-c2nc(-c3ccc4c(c3)OCCO4)c(-c3ccccn3)[nH]2)cc1", "remaining activity [%]": 90.4}
{"SMILES": "O=C1NC(=O)/C(=C/c2ccc3c(c2)OC(F)(F)O3)S1", "remaining activity [%]": 91.9}
{"SMILES": "CC(C)N(CCC(=O)c1ccc2ccccc2c1)Cc1ccccc1", "remaining activity [%]": 96.6}
{"SMILES": "O=Nc1c(-c2c(O)[nH]c3ccccc23)[nH]c2ccccc12", "remaining activity [%]": 62.6}
{"SMILES": "CCN(CC)CCCCN1c2ccccc2Oc2ccc(Cl)cc21", "remaining activity [%]": 90}
{"SMILES": "N#C/C(=C(/N)SC1C=CC=CC1)c1cccc(C(O)c2ccncc2)c1 (centres unmarked)", "remaining activity [%]": 94.8}
{"SMILES": "CNc1cc2c(Nc3cccc(Br)c3)ncnc2cn1", "remaining activity [%]": 102}
{"SMILES": "CCCCc1c(-c2ccc(O)cc2)[nH]c2nccnc12", "remaining activity [%]": 83.6}
{"note": "Repeated from above (series 3):"}
{"target": "GAK (Homo sapiens, UniProt O14976)", "test": "cell-free assay, competition with immobilised ligand", "remaining binding [%]": 93}
{"target": "EPHB4 (Homo sapiens, UniProt P54760)", "test": "cell-free assay, competition with immobilised ligand", "remaining binding [%]": 100}
{"target": "DCLK1 (Homo sapiens, UniProt O15075)", "test": "cell-free assay, competition with immobilised ligand", "remaining binding [%]": 75}
{"target": "TNK1 (Homo sapiens, UniProt Q13470)", "test": "cell-free assay, competition with immobilised ligand", "remaining binding [%]": 100}
{"target": "Tyrosine-protein kinase JAK2, JH1 (JAK2, Homo sapiens, UniProt O60674)", "test": "cell-free assay, competition with immobilised ligand", "remaining binding [%]": 53}
{"target": "LTK (Homo sapiens, UniProt P29376)", "test": "cell-free assay, competition with immobilised ligand", "remaining binding [%]": 100}
